Measured values collected from several papers.
Parts stem from different laboratories: compare values within a part only.

Set 1
Target: Prothrombin, mature alpha-thrombin (F2, Homo sapiens, UniProt P00734)
Method: aptamer microarray, sandwich
Form: DNA with 2'F-ANA
Matrix: in vitro
Tested at: 200 nM
Notes: whole 15-mer aptamer, many near background
With: Cy3 exosite-II aptamer, 400 nM
Direction: higher = stronger binding
Measurement: mean fluorescence intensity
Sequence: GGTTGGTGTGGTTGG
2'F-ANA at 1 2 3 5 10: 58.5 a.u.
2'F-ANA at 1 2 4 5 6 7 9 12 13: 65.8 a.u.
2'F-ANA at 2 3 4 5 6 7 8 11 12: 159 a.u.
2'F-ANA at 3 6 9 14: 549 a.u.
2'F-ANA at 2 3 4 6 7 8 9 11: 547 a.u.
2'F-ANA at 3 4 5 8 9 11 12 14 15: 73 a.u.
2'F-ANA at 3 5 7 8 9 10 13: 70.8 a.u.
2'F-ANA at 1 8 9 10 13: 53.7 a.u.
2'F-ANA at 10 12 13 14 15: 137 a.u.
2'F-ANA at 1 2 3 5 8 9 11 12 15: 95.7 a.u.
2'F-ANA at 3 4 5 6 7 8 9 10 11 14: 44.4 a.u.
2'F-ANA at 1 3 5 9 10 15: 45.8 a.u.
2'F-ANA at 1 2 4 5 6 7 8 10 12 13 14 15: 51.2 a.u.
2'F-ANA at 1 3 4 5 6 9 11 12 15: 89.5 a.u.
2'F-ANA at 2 4 7 8 11 12 13 14: 139 a.u.
2'F-ANA at 2 5 9 11 12 13 14 15: 57.4 a.u.
2'F-ANA at 1 3 5 6 8 9 12 14: 50.7 a.u.
2'F-ANA at 1 5 7 9 11 14: 48.6 a.u.
2'F-ANA at 1 2 5 6 8 10 11 12 14: 49.6 a.u.
2'F-ANA at 2 5 6 8 10 13: 48.2 a.u.
2'F-ANA at 1 3 4 5 6 7 9 10 11 14: 48.7 a.u.
2'F-ANA at 2 3 4 5 8 9: 103 a.u.
2'F-ANA at 1 3 5 6 8 10 11 12 14 15: 75.1 a.u.
2'F-ANA at 2 4 9 10 11 13: 70.3 a.u.
2'F-ANA at 2 5 6 7 9 13 14: 47 a.u.

Set 2
Target: Interferon regulatory factor 5, full length, phosphomimetic (IRF5, Homo sapiens, UniProt Q13568-2, residues 1-514, K96S/S451D/S453D/S456D/S462D)
Method: protein-binding microarray
Form: double-stranded DNA, one strand shown
Matrix: in vitro
Tested at: 250 nM
Notes: 60-bp whole probe
With: salmon DNA 0.4 mg/ml
Relative to: random background probes
Direction: higher = stronger binding
Measurement: log fluorescence
Constant ends, left off below: GCCTAGCAC … GTCTTGATTCGCTTGACGCTGCTG
GACGGACTGCTTTTCGTGACGTGCTAG: 0.181 z-score
TTCCTTCTTGAACTCTTTACGTGCTAG: 0.932 z-score
TCAATTCTGAATTCGAAACTGTGCTAG: 1.73 z-score
GACGGTTTCTTTTCCCTGACGTGCTAG: 1.51 z-score
TCAGCTTTCCTTCATGCACTGTGCTAG: 0.772 z-score
GACGAACGGGGGTATCGAGACGTGCTA: 1.25 z-score
GACGATTTCGGGACTGGCGACGTGCTA: 1.37 z-score
GGAGTGGGAAGCTTCGCTCCGTGCTAG: -0.539 z-score
GACGATATCAGACTGGAGATGTGCTAG: 0.332 z-score
CCTTGCATGTTTTTGACAAAGTGCTAG: 0.104 z-score
GACGGTCTCCTTATCCTGATGTGCTAG: -0.0543 z-score
TTAGACTTCGGGTATCGATTAGTGCTA: 3.67 z-score
TTAGGTCTCGACTATCGGTTAGTGCTA: 5.86 z-score
GACGGACTGGACTATCGGGACGTGCTA: 0.708 z-score
TCATGTTTGATCTTGATACTGTGCTAG: 0.167 z-score
GACGGTCTCCTTCTCGTGACGTGCTAG: -0.264 z-score
GACGATATCAGACTAGAGACGTGCTAG: 0.325 z-score
GCCTTTATATACCTGAATATGTGCTAG: 0.264 z-score
TCAACTCTCTAATTTTGAGAGTGCTAG: 0.391 z-score
GACGGACTGGGACTGGGGAGGTGCTAG: -0.641 z-score
TTAGATTTCAGTATCGATGAGTGCTAG: 7.23 z-score

Set 3
Target: RNA binding protein fox-1 homolog 2, RRM domain, GST-SBP tag (RBFOX2, Homo sapiens, UniProt O43251-10, residues 100-194)
Method: RNA Bind-n-Seq
Form: RNA
Matrix: in vitro
Tested at: 365 nM
Notes: natural RNA segment, single round, ends assumed
Relative to: no-protein control
Direction: higher = stronger binding
Measurement: RBNS enrichment (R)
Construct (chain): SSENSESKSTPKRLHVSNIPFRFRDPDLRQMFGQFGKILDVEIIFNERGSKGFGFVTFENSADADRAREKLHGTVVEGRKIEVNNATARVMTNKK
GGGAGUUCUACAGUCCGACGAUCAGGCUCGUGGAGAGGCUGAGGGAAUGUUACUAAGUUUCCCUCCGUUUGUCUCCAGUCUGGUGCCAGGCAGUAGAGUGGAAAAGGAGGCUAUUUUUUUAUUCUAUGUGCACUGGAAUUCUCGGGUGCCAA: 1.28
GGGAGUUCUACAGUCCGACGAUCACUACUUUACCCUACCUUCUCCCCUUUUAGAUGGGUUCUUCCUGAGUUUUGGAGUCUUGUAUGAUUAUCAGUAUUCCCCUGUCAAAAUCAAAUCUAUUCAGGUUUCUUCAUGGAAUUCUCGGGUGCCAA: 0.652
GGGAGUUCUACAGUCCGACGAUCGGAAUCUGAGUUGCCAACUUCAGGACGACACCUGGCUUGCCACCCACAGUGCACCACAGGCCAACCUACGCCCUUCAUCACUUGGUUCUGUUUUAAUCGACUGGCCCCCUUGGAAUUCUCGGGUGCCAA: 0.29
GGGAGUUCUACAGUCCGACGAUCCCCCAAACCCUCAUUUUGCAGAAACACUAGGUCUGUGGAGUAGGUUGUGAUUCUGGGGUCUCUUCAAUGACCCCGGUACCUCAUGAACCCCUGCUUAGCAUGGUUGUGCUUGGAAUUCUCGGGUGCCAA: 2.56
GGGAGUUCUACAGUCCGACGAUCUUGGGCCCCCUGUUCUUUCUUUCCCAUUAACUUGAGUGACCUGUGUGAGAGACAGACAGAUGCCCCACGAGGAUGGCUGGACAAGGACUUUUACUUUUUAUUACAUAAAAUGGAAUUCUCGGGUGCCAA: 0.407
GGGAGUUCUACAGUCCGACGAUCACUACUAUUCAAGCAGAGAUUUUGUCUAAUAGAACAUGCCUUUCUUGCUUUUGCUUCUUUUCUUUUGAGACAUGUACCCUUUCUGAUUGGAUAAUUGAUGUUUAGCCAAGUGGAAUUCUCGGGUGCCAA: 0.555
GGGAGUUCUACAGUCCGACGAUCCAGCAUAUAAAAACAUCAGUCCCGAGGAGGGGACAACAAUACUACCUCACUACUACAUCUGUGAUGACUGGUUGUUCAAACACAAUGGAGUGUGUAAGGUAUAUGUUUUAUGGAAUUCUCGGGUGCCAA: 1.29
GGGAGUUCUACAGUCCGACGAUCUUGUAAAUGCUAAUUUUUUAGGACUCUAUUAGUCAGCAUAAAAUCUAUAUGAAGAAGAUGGACAUUUUAUCCUCUUAUGGUGAUGUUUUUUGGAAAUUUCCAUCAUCCUCUGGAAUUCUCGGGUGCCAA: 3.05
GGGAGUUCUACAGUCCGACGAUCCUAGCCUAAGUAGGAAGUGAAAAGAUAAUUCACCAAACAAUGAUUAAUCAGAUAGAAGUUCUAGUCAAGAGGGAUAUUGUUGAAGUUACCUCUUUUAGCCUAGAUACAUGUGGAAUUCUCGGGUGCCAA: 0.326
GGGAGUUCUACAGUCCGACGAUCUAUCUCAGACCCAAGGCACCUCAGGUCUCUUUGCUGUGCCUCCACUAUAUUGUCGUGUGGGUGUGUGUCUGCACCCACAUCCUCACACAUUGAUCUAGAUCUGCCUUUAUUGGAAUUCUCGGGUGCCAA: 0.261
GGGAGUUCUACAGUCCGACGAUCAAUGCCCCUCGCUUUUCUAAGGCCAUGUGAAAAUCACGGCACUGCCCUUAGCCUUGUGUCAUCUGCUUUUUCGUUCUGCGAUAUGCCCAGUUCCCAAAUCAAUUAUAGGUUGGAAUUCUCGGGUGCCAA: 0.242
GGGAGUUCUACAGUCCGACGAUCAUUUUAUCUAAAUGUCUCCUUUCAUCUGUGGGAAAGCUAUAGCUGAGUGUCUUUAGCCCCUGCCCUACUUUUCCCUCUCUGACUUUUUUCCCAGGUAGCUUAGUGUUUAAUGGAAUUCUCGGGUGCCAA: 0.411

Set 4
Target: Ras GTPase-activating protein-binding protein 1, C-terminal RGG region (G3BP1, Homo sapiens, UniProt Q13283)
Sequence of UniProt Q13283 (whole entry, looked up): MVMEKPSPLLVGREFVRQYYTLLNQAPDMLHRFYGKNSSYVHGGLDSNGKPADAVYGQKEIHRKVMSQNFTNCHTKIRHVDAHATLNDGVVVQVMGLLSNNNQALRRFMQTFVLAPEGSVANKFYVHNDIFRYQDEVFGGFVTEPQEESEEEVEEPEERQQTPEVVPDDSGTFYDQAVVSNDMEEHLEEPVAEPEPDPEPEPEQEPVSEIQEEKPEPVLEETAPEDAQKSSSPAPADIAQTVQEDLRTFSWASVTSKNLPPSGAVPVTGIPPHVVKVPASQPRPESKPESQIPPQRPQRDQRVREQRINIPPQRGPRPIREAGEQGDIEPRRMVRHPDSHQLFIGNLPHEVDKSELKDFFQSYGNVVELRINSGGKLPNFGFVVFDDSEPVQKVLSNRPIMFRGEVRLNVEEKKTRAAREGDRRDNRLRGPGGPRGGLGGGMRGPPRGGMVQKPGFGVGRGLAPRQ
Method: RNA Bind-n-Seq
Form: RNA
Matrix: in vitro
Tested at: 1 µM
Notes: whole 134-nt RNA, ends assumed
With: 150 mM KCl
Relative to: input library
Direction: higher = stronger binding
Measurement: log2 enrichment
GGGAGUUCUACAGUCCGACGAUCCAAGUCCUGUGCUACACAUCGUAUGUACCGAAUCGGGUUUUUUUGGGUGGGAGGGAAAGUAUUAUGUUACGCCGUUCGGAUCUGCACUUCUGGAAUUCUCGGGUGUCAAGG: 1.09
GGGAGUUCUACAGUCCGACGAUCGUCCUGUGCUACACAUCGUAUGUACCGAAUCGGGGAAAGGGGUUUUUUUGGGGUGGGGAAAGUAUUAUGUUACGCCGUUCGGAUCUGCACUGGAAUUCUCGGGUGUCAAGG: 1.74
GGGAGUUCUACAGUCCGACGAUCCUCAAGUCCUGUGCUACACAUCGUAUGUACCGAAUCGGUUUGGUUUUUGGAGGAAAGUAUUAUGUUACGCCGUUCGGAUCUGCACUUCCAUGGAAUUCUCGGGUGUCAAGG: -0.911
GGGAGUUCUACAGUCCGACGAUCUGGGAGGUGGAUUUUGUUUAUUUUUUUAGCUCAUUUCCAGGGGUGGGAAUUUUCUUUUAAUAUGUGUCAUGAAUAAAGUUGUUUUUGAAAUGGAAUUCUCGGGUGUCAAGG: 3.35
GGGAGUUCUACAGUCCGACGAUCCUCAAGUCCUGUGCUACACAUCGUAUGUACCGAAUCGGUUUUUGGUUUGGAGGAAAGUAUUAUGUUACGCCGUUCGGAUCUGCACUUCCAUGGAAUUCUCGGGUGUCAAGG: -1.23
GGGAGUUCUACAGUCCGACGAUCAAGUCCUGUGCUACACAUCGUAUGUACCGAAUCGGGGUGGGGUUUUUGGGGAGGGGAAAGUAUUAUGUUACGCCGUUCGGAUCUGCACUUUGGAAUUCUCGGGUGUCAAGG: 1.92
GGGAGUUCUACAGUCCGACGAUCACCAUGCAGGUGGGCAUCUUUGGGAAGUGGGGCAAGGGGGGGAUAGGGAGGGGGGUAACACUUUGGGAACAGGUGGUCCCAGUUCGUUUCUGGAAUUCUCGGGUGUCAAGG: 1.63
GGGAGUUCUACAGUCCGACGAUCUCCUGUGCUACACAUCGUAUGUACCGAAUCGGGUUUUUUUGGGAAAGGGAAAAAAAGGGAAAGUAUUAUGUUACGCCGUUCGGAUCUGCAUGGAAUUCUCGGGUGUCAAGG: -0.856
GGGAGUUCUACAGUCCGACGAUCUAACUUUAGUGGAGGAUCUGAUGGAUAUGGCAGUGGACGUGGAUUUGGGGAUGGCUAUAAUGGGUAUGGAGGAGGACCUGGAGGUGGCAAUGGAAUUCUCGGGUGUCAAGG: -1.16
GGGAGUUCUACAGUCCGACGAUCGUCCUGUGCUACACAUCGUAUGUACCGAAUCGGGAAAAAGGGGAAAAAGGAAAAAGGGAAAGUAUUAUGUUACGCCGUUCGGAUCUGCACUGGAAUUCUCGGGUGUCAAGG: -1.24
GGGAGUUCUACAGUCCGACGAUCGCAGGAAGUAAAAACAAAUGGAAAUGUUUCGGAUAGUGGCAGGGGUGGGGGUUGCUAAGGAAAGGGUGGGAUGGGAGUGGGUAAAGAGUUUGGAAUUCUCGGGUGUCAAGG: 1.46
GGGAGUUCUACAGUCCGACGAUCCCUGUGCUACACAUCGUAUGUACCGAAUCGGGAAAAAAAGGGUUUUUUUGGGAAAAAGGGAAAGUAUUAUGUUACGCCGUUCGGAUCUGCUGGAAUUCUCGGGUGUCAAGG: -2.19
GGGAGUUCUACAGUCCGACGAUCUGGCCCUGGUGGCAUGCGGGGAGGAAGAGGUGGCCUCAUGGAUCGUGGUGGUCACGGUGGAAUGUUCAGAGGUGGCCGUGGUGGAGACAGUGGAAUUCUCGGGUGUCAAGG: 2.24
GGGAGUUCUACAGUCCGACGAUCGUCCUGUGCUACACAUCGUAUGUACCGAAUCGGGAAAGGGAAAAAGGGAAAAAAAGGGAAAGUAUUAUGUUACGCCGUUCGGAUCUGCACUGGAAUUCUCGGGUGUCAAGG: -0.466

Repeated from above (set 1):
2'F-ANA at 1 2 5 6 8 10 11 12 14: 49.6 a.u.
2'F-ANA at 2 5 6 8 10 13: 48.2 a.u.
2'F-ANA at 1 3 4 5 6 7 9 10 11 14: 48.7 a.u.
2'F-ANA at 2 3 4 5 8 9: 103 a.u.
2'F-ANA at 1 3 5 6 8 10 11 12 14 15: 75.1 a.u.
2'F-ANA at 2 4 9 10 11 13: 70.3 a.u.
